Results pooled from the literature.
Lines come from different studies, so protocols differ. ± gives the spread as reported.
Organism: Plasmodium falciparum

Structure (SMILES)	read-out	technique	strain	sample	time	setting	EC50
C[C@H]1[C@@H](CC(=O)NCCCC(=O)N[C@@H](CC(=O)NC(C)(C)C)C(=O)NCCNC(=O)c2cc(-c3ccccc3F)ccc2F)O[C@@H]2O[C@@]3(C)CC[C@H]4[C@H](C)CC[C@@H]1[C@@]24O3	parasite growth		Dd2 beta6 A117D, proteasome inhibitor-resistant	erythrocytic stage	72 h		246 ± 44.5 nM
CC(=O)NC(C)(C)C(=O)N[C@@H](C)C(=O)NC(C)(C)C(=O)N[C@@H](C)C(=O)NC(C)(C)C(=O)N[C@@H](C)C(=O)N[C@@H](CCC(N)=O)C(=O)NC(C)(C)C(=O)N[C@H](C(=O)NC(C)(C)C(=O)NCC(=O)N[C@@H](CC(C)C)C(=O)NC(C)(C)C(=O)N1CCC[C@H]1C(=O)N[C@H](C(=O)NC(C)(C)C(=O)NC(C)(C)C(=O)N[C@@H](CCC(N)=O)C(=O)N[C@@H](CCC(N)=O)C(=O)N[C@H](CO)Cc1ccccc1)C(C)C)C(C)C	parasite growth		DD2			drug-resistant strain	560 nM
Clc1ccc2nc(-c3ccncc3)cc(NCCCCN3CCOCC3)c2c1	parasite growth	SYBR Green	DD2		72 h	drug-resistant strain, blood stage	> 400 nM
CC[C@H](C)[C@H](NC(=O)[C@H](CO)NC(=O)[C@@H]1CCCN1C(=O)C(C)(C)NC(=O)[C@H](CC(C)C)NC(=O)[C@H](CC(N)=O)NC(=O)C(C)(C)NC(C)=O)C(=O)NC(C)(C)C(=O)N1CCC[C@H]1C(=O)N[C@](C)(CC)C(=O)N[C@@H](CC(C)C)C(=O)NC(C)(C)C(=O)N1CCC[C@H]1C(=O)N[C@H](CO)CC(C)C	parasite growth		DD2			drug-resistant strain	520 nM
Cc1cc(Nc2ccc(S(F)(F)(F)(F)F)cc2)n2nc(C(C)(F)F)nc2n1	parasite growth		Dd2 DHODH C276F clone CL2				390 ± 230 nM
Cc1[nH]c2ccccc2c(=O)c1-c1ccc(Oc2ccccc2)cc1	parasite growth	SYBR Green	DD2		72 h	drug-resistant strain, blood stage	10 nM
C[C@@H]1NC(=O)[C@H](CCCCCC(=O)[C@@H]2CO2)NC(=O)[C@H]2CCCN2C(=O)[C@H](Cc2ccccc2)NC1=O	parasite growth	SYBR Green I	3D7, drug-sensitive		72 h		10 ± 1 nM
CC[C@H](C)[C@H](NC(=O)C(C)(C)NC(=O)[C@H](CCC(N)=O)NC(=O)[C@H](C)NC(=O)C(C)(C)NC(=O)[C@H](C)NC(=O)C(C)(C)NC(=O)[C@H](C)NC(=O)C(C)(C)NC(C)=O)C(=O)NC(C)(C)C(=O)NCC(=O)N[C@@H](CC(C)C)C(=O)NC(C)(C)C(=O)N1CCC[C@H]1C(=O)N[C@H](C(=O)NC(C)(C)C(=O)N[C@](C)(CC)C(=O)N[C@@H](CCC(N)=O)C(=O)N[C@@H](CCC(N)=O)C(=O)N[C@H](CO)Cc1ccccc1)C(C)C	parasite growth		DD2			drug-resistant strain	520 nM
CC(C)C[C@@H]1NC(=O)[C@@H](Cc2ccccc2)NC(=O)[C@H](CCCCCC(=O)C2CO2)NC(=O)[C@@H]2CCCCN2C1=O (some centres unmarked)	parasite growth	SYBR Green	DD2			drug-resistant strain, blood stage	120 nM
Cc1cc(Nc2ccc(S(F)(F)(F)(F)F)cc2)n2ncnc2n1	parasite growth	[3H]hypoxanthine uptake	3D7				~200 nM
CC(C)C[C@@H](/C=C/S(C)(=O)=O)NC(=O)[C@H](CC(C)C)NC(=O)[C@H](Cc1c[nH]c2ccccc12)NC(=O)CN1CCOCC1	asexual blood stage growth		W2		72 h		15 nM

Excerpt of the above:
Structure (SMILES)	read-out	technique	strain	sample	time	setting	EC50
Clc1ccc2nc(-c3ccncc3)cc(NCCCCN3CCOCC3)c2c1	parasite growth	SYBR Green	DD2		72 h	drug-resistant strain, blood stage	> 400 nM
CC[C@H](C)[C@H](NC(=O)[C@H](CO)NC(=O)[C@@H]1CCCN1C(=O)C(C)(C)NC(=O)[C@H](CC(C)C)NC(=O)[C@H](CC(N)=O)NC(=O)C(C)(C)NC(C)=O)C(=O)NC(C)(C)C(=O)N1CCC[C@H]1C(=O)N[C@](C)(CC)C(=O)N[C@@H](CC(C)C)C(=O)NC(C)(C)C(=O)N1CCC[C@H]1C(=O)N[C@H](CO)CC(C)C	parasite growth		DD2			drug-resistant strain	520 nM
